Measurements collected from several papers.
Protocols differ between the studies behind these lines. ± gives the spread as reported. Converted amounts (≈) assume the structure as drawn.
Ugcg: Ceramide glucosyltransferase (Ugcg, Mus musculus, UniProt O88693)
Sequence of UniProt O88693 (whole entry, looked up): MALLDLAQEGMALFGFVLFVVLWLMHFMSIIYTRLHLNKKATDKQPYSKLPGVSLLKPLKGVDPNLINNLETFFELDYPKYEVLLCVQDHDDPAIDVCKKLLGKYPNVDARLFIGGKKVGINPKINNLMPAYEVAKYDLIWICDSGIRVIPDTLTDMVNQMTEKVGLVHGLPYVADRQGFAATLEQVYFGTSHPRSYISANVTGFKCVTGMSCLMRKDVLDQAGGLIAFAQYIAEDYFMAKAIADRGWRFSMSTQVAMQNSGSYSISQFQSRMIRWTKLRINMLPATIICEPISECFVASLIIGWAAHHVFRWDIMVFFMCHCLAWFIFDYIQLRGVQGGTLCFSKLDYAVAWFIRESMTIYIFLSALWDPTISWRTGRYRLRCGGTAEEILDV

For `OC1(C(F)(F)F)CCN(c2nc(Nc3ccnc(C(F)(F)F)c3)nc(-c3cccc(C(F)(F)F)n3)n2)C1` (stereo not shown), the MRT(0-inf) was 24.2 h (Sprague-Dawley rat, plasma; oral, 20 mg/kg).
For `CC(C)(C)COCCOCCN1C[C@H](O)[C@@H](O)[C@H](O)[C@@H]1CO`, the IC50 was 12.1 µM (Ugcg; enzyme activity, inhibitor, fluorescence).
`O=C(c1ccc(C2CCCCC2)cc1)N1CCC(F)CC1` gave a hepatic clearance of 41 mL/min/kg (liver microsome stability; cynomolgus liver microsomes; 1 µM).
The half-life of `C=C(NC(=O)c1csc(-c2nc3c(cc2O)-c2nc(cs2)C(=O)NC(C(C)O)C(=O)NC(=C(C)OC)c2nc(cs2)C(=O)NC2c4nc(cs4)C(=O)NC(COC(=O)c4c5c6c(cccc6n4O)COC(=O)C(OC4CC(C)(O)C(N(C)C)C(C)O4)C2OC5)c2nc-3cs2)n1)C(N)=O` (stereo not shown) is reported as 5.95 h (male Sprague-Dawley rat, plasma; intravenous, 6 mg/kg, single dose, infusion).
With `Nc1ncc(-c2ccc(C3CCCCC3)cc2)cn1` the hepatic clearance was 4.3 mL/min/kg (liver microsome stability; human liver microsomes; 1 µM, without NADPH).
For `O=C(c1ccc(-c2ccccc2)cc1)N1CCCCC1`, the compound remaining was 97% (metabolic stability; human, liver microsomes; 2 µM, 15 min, pH 7.4).
`C/C(N)=N/C(=N\S(=O)(=O)c1ccc(C(F)(F)F)cc1)N1C[C@H](c2ccccc2)C(c2ccc(Cl)cc2)=N1` has a Cmax of 1190 ng/mL (cynomolgus monkey, female, plasma; oral, 6 mg/kg).
The hepatic clearance of `N#CCNC(=O)c1ccc([C@H]2[C@@H](F)[C@@H](F)C[C@@H](F)[C@H]2F)cc1` is reported as 24 mL/min/kg (hepatocyte stability; cryopreserved mouse hepatocytes; 1 µM).
For `C=CC(=O)Nc1cc(Nc2nccc(-c3cn(C)c4ccccc34)n2)c(OC)cc1N(C)CCNC`, the percentage recovery was 13.3% (storage stability; human plasma samples; 30 d, -80 °C, LLOQ level; relative to: nominal concentration).
For `CC(C)(O)c1ncc([S@](N)(=O)=NC(=O)Nc2c3c(cc4c2CCC4)CCC3)s1`, “subjects with adverse events” read 50% (refers to: Gastrointestinal disorders; healthy human volunteers; oral, 30 mg once daily, 14 days, capsule formulation).
With `C=C1C[C@]2(C(=O)OC)C=C(C(=O)Nc3cccc(C(=O)Nc4ccc(Nc5nccc(-c6cccnc6)n5)c(C)c4)c3)C(=O)[C@H]1C2` the compound remaining was 47% (Wistar rat, male, plasma; 10 µM, 5 min).
`O=C(NCc1cccc(Cl)c1)c1ccc(C2CCCCC2)cc1` gave a hepatic clearance of 28 mL/min/kg (liver microsome stability; dog liver microsomes; 1 µM).
The aqueous solubility of `CCCc1cc2cc(-n3nc(CC)c4c3CC(C)(C)CC4=O)cc(N3CCC(O)CC3)c2c(=O)[nH]1` is reported as 0.228 µM (≈ 0.109 µg/mL) (pH 6.8).
`O=C(Nc1cnccc1-c1ccc([18F])nc1)c1ccnc(NC(=O)C2CC2)c1` gave an SUV of 0.25 ± 0.12 (FVB/NJ mouse, both sexes, brain; intravenous, 4 min post-injection, with: P-gp inhibitor tariquidar 15 mg/kg iv).
`CS(=O)(=O)c1ccc(-c2ccc(C3CCCCC3)cc2)cn1` has a hepatic clearance of 17 mL/min/kg (hepatocyte stability; cryopreserved human hepatocytes; 1 µM).
`COc1cccc(OC)c1-c1cc(C(=O)NC2(C(=O)O)C3CC4CC(C3)CC2C4)nn1-c1ccc(C(=O)N(C)CCOCCOCCN(C)C(=O)[C@H](CCCCNC(=O)[C@H](CC(C)C)NC(=O)C2OC2C(=O)O)NC(=O)CN2CCN(CC(=O)[O-])CCN(CC(=O)[O-])CCN(CC(=O)[O-])CC2)cc1C(C)C.[177Lu+3]` (mixture of isomers) has a tumour-to-blood ratio of 3.57 (mouse, HT-29 xenograft; 168 h post injection, biodistribution; relative to: tumour over blood uptake).
`COc1ccc2c(c1)O[B-]1(c3ccccc3)OC(=O)C(c3ccccc3)=N[N+]1=C2` (stereo not shown) has a fluorescence lifetime of 1.29 ns (toluene).
The fu of `Cn1ncc2cc(CN3CCC(F)(F)C(COc4ccc(C#N)cc4)C3)ccc21` (stereo not shown) is reported as 0.007 (equilibrium dialysis; mouse plasma).
With `OC[C@@H]1[C@@H](O)[C@H](O)[C@@H](O)CN1CCCCCOCc1ccccc1-c1ccccc1` the IC50 was 0.05 µM (Ugcg; enzyme activity, inhibitor, fluorescence).

Repeated from above:
`COc1cccc(OC)c1-c1cc(C(=O)NC2(C(=O)O)C3CC4CC(C3)CC2C4)nn1-c1ccc(C(=O)N(C)CCOCCOCCN(C)C(=O)[C@H](CCCCNC(=O)[C@H](CC(C)C)NC(=O)C2OC2C(=O)O)NC(=O)CN2CCN(CC(=O)[O-])CCN(CC(=O)[O-])CCN(CC(=O)[O-])CC2)cc1C(C)C.[177Lu+3]` (mixture of isomers) has a tumour-to-blood ratio of 3.57 (mouse, HT-29 xenograft; 168 h post injection, biodistribution; relative to: tumour over blood uptake).
`COc1ccc2c(c1)O[B-]1(c3ccccc3)OC(=O)C(c3ccccc3)=N[N+]1=C2` (stereo not shown) has a fluorescence lifetime of 1.29 ns (toluene).
`O=C(NCc1cccc(Cl)c1)c1ccc(C2CCCCC2)cc1` gave a hepatic clearance of 28 mL/min/kg (liver microsome stability; dog liver microsomes; 1 µM).
